Measured values of several laboratories.
Protocols differ between the studies behind these lines. ± gives the spread as reported.
fbpC: Diacylglycerol acyltransferase/mycolyltransferase Ag85C (fbpC, Mycobacterium tuberculosis, UniProt P9WQN9)
UniProt P9WQN9, sequence (whole entry, looked up): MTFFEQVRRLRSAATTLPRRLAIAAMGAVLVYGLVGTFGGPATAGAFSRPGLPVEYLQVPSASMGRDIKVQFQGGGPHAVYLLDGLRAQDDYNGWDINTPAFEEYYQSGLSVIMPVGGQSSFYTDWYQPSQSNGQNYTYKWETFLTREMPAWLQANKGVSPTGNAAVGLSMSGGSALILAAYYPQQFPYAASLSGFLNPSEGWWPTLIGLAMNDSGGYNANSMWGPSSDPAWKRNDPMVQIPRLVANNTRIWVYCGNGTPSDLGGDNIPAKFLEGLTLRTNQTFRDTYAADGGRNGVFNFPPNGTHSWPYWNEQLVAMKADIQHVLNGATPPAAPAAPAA
CNR2: Cannabinoid receptor 2 (CNR2, Homo sapiens, UniProt P34972)
UniProt P34972, sequence (whole entry, looked up): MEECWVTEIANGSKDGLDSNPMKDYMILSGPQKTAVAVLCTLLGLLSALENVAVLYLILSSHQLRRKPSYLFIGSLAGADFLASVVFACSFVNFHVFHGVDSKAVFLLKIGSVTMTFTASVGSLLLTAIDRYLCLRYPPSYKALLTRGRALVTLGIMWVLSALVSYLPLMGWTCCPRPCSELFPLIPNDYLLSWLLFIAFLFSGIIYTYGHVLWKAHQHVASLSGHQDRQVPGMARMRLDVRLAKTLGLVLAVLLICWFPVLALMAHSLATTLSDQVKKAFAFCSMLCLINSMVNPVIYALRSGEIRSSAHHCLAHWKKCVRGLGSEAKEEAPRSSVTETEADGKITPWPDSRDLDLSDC
ribE: Riboflavin synthase (ribE, Mycobacterium tuberculosis, UniProt P9WK35)
UniProt P9WK35, sequence (whole entry, looked up): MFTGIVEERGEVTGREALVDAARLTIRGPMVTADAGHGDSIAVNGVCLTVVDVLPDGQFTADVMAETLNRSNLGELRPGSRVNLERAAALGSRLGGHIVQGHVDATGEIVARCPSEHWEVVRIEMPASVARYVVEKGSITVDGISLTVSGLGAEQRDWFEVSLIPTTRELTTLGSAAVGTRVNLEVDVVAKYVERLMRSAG
Type II NADH:quinone oxidoreductase Ndh: Type II NADH:quinone oxidoreductase Ndh (Mycobacterium tuberculosis, UniProt P95160)
UniProt P95160, sequence (whole entry, looked up): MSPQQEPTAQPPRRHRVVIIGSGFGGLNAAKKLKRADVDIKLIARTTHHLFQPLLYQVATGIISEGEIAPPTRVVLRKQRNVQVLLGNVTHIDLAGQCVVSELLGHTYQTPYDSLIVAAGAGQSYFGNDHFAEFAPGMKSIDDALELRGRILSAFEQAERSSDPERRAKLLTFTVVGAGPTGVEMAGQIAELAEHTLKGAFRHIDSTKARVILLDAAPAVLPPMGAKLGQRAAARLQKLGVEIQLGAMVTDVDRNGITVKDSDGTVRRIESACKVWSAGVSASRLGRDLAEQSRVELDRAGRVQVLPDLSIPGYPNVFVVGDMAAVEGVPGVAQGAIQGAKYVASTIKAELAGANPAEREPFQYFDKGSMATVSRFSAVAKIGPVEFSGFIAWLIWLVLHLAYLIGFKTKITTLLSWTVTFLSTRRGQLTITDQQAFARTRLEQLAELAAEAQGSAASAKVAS
ADRA2A: Alpha-2A adrenergic receptor (ADRA2A, Homo sapiens, UniProt P08913)
UniProt P08913, sequence (whole entry, looked up): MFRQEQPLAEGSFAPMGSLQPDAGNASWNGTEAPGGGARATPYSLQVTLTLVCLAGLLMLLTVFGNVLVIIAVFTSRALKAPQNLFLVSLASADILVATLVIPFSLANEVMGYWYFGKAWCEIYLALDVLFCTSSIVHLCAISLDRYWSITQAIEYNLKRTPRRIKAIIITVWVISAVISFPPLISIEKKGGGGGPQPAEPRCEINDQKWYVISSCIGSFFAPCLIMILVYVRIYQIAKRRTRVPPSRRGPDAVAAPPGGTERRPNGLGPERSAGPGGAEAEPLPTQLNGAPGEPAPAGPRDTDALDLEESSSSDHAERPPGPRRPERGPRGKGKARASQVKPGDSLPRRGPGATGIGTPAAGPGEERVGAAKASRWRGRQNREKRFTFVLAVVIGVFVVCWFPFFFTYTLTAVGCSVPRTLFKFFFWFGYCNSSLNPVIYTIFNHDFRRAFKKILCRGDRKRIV
OPRK1: Kappa-type opioid receptor (OPRK1, Homo sapiens, UniProt P41145)
UniProt P20272, sequence (whole entry, looked up): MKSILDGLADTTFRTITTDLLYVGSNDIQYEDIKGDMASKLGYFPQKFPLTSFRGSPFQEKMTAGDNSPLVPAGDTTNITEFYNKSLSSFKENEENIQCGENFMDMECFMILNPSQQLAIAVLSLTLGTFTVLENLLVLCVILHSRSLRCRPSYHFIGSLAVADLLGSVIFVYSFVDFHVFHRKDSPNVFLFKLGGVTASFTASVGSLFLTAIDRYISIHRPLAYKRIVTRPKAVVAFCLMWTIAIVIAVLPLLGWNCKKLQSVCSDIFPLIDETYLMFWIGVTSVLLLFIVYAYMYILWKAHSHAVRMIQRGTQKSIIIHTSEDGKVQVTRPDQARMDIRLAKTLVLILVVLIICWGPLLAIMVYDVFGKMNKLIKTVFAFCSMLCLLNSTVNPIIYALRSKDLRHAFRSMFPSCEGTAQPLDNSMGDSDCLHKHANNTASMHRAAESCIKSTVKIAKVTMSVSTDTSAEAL
UniProt P41145, sequence (whole entry, looked up): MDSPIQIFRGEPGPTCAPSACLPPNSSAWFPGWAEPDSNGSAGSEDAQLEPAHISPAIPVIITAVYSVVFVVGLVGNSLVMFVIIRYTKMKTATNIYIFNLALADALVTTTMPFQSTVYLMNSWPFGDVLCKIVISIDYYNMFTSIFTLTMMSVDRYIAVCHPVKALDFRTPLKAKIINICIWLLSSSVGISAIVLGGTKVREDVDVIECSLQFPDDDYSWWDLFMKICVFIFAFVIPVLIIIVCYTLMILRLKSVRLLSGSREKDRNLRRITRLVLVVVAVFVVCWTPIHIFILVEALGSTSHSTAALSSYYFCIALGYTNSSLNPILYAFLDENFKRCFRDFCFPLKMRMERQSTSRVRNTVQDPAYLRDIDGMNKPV
UniProt P18508, sequence (whole entry, looked up): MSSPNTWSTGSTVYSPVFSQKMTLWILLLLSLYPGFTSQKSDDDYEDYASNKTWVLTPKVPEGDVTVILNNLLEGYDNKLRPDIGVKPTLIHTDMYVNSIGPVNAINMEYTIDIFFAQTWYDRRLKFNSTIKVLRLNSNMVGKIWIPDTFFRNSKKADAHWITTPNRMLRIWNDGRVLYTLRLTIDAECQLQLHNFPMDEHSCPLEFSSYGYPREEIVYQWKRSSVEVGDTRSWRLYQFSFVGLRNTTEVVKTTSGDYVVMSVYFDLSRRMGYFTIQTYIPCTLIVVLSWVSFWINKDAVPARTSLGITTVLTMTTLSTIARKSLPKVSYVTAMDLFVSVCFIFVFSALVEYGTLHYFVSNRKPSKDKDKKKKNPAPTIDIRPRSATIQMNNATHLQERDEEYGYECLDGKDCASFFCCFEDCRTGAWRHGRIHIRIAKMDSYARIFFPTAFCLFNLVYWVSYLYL
UniProt P0DOF5, sequence (whole entry, looked up): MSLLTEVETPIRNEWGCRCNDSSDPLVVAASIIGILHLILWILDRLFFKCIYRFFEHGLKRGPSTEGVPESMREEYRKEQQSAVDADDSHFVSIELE
UniProt P47746, sequence (whole entry, looked up): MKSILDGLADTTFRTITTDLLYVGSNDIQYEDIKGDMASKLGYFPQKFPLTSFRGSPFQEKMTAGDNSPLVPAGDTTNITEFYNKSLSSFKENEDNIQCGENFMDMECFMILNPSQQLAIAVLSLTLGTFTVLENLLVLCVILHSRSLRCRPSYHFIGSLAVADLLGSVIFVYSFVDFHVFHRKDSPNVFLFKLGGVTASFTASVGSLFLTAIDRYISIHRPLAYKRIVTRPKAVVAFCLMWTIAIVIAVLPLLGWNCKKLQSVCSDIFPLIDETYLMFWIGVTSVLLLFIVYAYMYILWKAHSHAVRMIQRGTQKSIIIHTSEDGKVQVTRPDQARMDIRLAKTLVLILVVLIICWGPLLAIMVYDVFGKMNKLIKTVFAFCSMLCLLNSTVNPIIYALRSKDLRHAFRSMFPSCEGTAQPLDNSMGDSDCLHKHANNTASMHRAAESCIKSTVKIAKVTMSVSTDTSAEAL
UniProt O33336, sequence (whole entry, looked up): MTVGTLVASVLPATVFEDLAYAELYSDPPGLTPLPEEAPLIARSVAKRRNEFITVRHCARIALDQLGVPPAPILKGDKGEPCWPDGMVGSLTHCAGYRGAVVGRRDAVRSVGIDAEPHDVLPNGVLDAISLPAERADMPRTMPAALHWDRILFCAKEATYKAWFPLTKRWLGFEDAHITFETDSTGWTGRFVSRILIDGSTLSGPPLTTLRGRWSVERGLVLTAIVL
UniProt P26439, sequence (whole entry, unmodified, looked up): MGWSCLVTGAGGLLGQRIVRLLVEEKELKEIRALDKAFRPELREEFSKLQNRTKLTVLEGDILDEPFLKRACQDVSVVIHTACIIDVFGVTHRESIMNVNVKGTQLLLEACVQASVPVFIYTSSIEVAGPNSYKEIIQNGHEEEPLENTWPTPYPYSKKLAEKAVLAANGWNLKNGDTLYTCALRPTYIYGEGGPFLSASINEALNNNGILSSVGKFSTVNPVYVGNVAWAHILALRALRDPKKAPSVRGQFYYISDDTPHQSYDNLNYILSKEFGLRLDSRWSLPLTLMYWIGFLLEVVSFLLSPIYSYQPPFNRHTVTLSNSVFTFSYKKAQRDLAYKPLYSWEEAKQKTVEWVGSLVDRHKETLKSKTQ
UniProt P00568, sequence (whole entry, looked up): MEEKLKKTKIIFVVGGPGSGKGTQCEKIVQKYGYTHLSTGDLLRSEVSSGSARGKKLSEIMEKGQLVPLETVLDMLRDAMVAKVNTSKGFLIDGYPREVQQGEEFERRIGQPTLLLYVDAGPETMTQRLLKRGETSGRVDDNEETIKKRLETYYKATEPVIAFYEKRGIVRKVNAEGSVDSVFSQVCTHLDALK
UniProt P07148, sequence (whole entry, looked up): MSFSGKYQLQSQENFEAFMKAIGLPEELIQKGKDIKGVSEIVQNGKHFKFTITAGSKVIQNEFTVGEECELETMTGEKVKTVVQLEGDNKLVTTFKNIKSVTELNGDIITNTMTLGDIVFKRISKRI

Substance	target	assay	system	conditions	how to read	endpoint	result
CC1(C)Oc2cc([C@]34CC5CC(C[C@@](CN=C=S)(C5)C3)C4)cc(O)c2[C@@H]2C[C@H](O)CC[C@H]21	Cnr1 (Rattus norvegicus, UniProt P20272)	radioligand binding Bmax reduction	rat brain membranes	10-fold Ki, together with: [3H]CP-55,940	baseline: untreated	covalent labeling	63%
Cc1ncc2n1-c1ccc(Cl)cc1C(c1ccccc1F)=NC2	rat CYP3A	4-hydroxylation, substrate	liver microsomes	10 min, 37 °C, 3-week-old control rats		Km	11.1 ± 4.71 µM
CC(=O)O[C@H]1CC[C@@]2(C)C(=CC[C@@H]3[C@@H]2CC[C@]2(C)C(=O)CC[C@@H]32)C1	SCN10A (Homo sapiens, UniProt Q9Y5Y9)	sodium influx, inhibitor, FLIPR	HEK293	10 µM, together with: deltamethrin 10 µM		inhibition	101%
O=c1c2ccccc2[se]n1C12CC3CC(CC(C3)C1)C2	fbpC	inhibitor, resorufin butyrate fluorescence		5 µM, 40 min preincubation	baseline: untreated	remaining activity	59 ± 14%
C1CCC2(CC1)CCNCC2	Matrix protein 2 (Influenza A virus, UniProt P0DOF5)	ion channel current, inhibitor, two-electrode voltage clamp	Xenopus oocytes	100 µM		remaining activity	5%
NC(=O)[C@@H](NC(=O)c1nn(Cc2ccc(F)cc2)c2ccccc12)c1ccccc1	CNR2	calcium mobilization, agonist	CHO-K1 expressing Gαq16		baseline: CP55,940 maximum	Emax	69 ± 10%
CCCCCCCCCCC[C@@H](C[C@@H]1OC(=O)[C@H]1CCCCCC)OC(=O)[C@H](CC(C)C)NC=O	Polyketide synthase Pks13, thioesterase domain (pks13, Mycobacterium tuberculosis, UniProt I6X8D2)	thioesterase activity, inhibitor		100 µM, 1 h preincubation	baseline: uninhibited	remaining activity	~30%
O=c1c2ccccc2[se]n1CC1CCCCC1	fbpC	inhibitor, resorufin butyrate fluorescence		5 µM, 40 min preincubation	baseline: untreated	remaining activity	30 ± 16%
O=C1c2c(O)ccc(O)c2C(=O)c2c(NCCNCCO)ccc(NCCNCCO)c21	4'-phosphopantetheinyl transferase PptT (Mycobacterium tuberculosis, UniProt O33336)	inhibitor		concentration not given		enzyme activity	inactive
C[C@]12CCC(=O)CC1=CC[C@@H]1[C@@H]2CC[C@]2(C)C(=O)CC[C@@H]12	HSD3B2 (Homo sapiens, UniProt P26439, P195R)	substrate				Km	102 µM
CC(C)(NC(=O)c1nn(Cc2ccc(F)cc2)c2ccccc12)C(=O)Nc1cccc(C(N)=O)c1	CNR2	calcium mobilization, agonist	CHO-K1 expressing Gαq16		baseline: CP55,940 maximum	Emax	70 ± 2%
CN1C(=O)CN=C(c2ccccc2)c2cc(Cl)ccc21	Gabrg2/Gabra5, with β3 subunit (Rattus norvegicus, UniProt P18508+P19969)	GABA-induced chloride current, two-electrode voltage clamp	Xenopus oocytes	together with: GABA at EC3		Emax	321 ± 14%
O=c1[nH]c(/C=C/c2cc([N+](=O)[O-])ccc2O)c([N+](=O)[O-])c(=O)[nH]1	ribE	enzyme activity, substrate	Mycobacterium tuberculosis, recombinant riboflavin synthase	pH 7.0		Ks	10 ± 0.5 µM
COc1ccccc1Cn1[se]c2ccccc2c1=O	fbpC	inhibitor, resorufin butyrate fluorescence		5 µM, 40 min preincubation	baseline: untreated	remaining activity	36 ± 4%
NC(=O)[C@H](Cc1ccccc1)NC(=O)c1nn(Cc2ccc(F)cc2)c2ccccc12	CNR2	calcium mobilization, agonist	CHO-K1 expressing Gαq16		baseline: CP55,940 maximum	Emax	66 ± 8%
CN1CCN(C(=O)OC2c3nccnc3C(=O)N2c2ccc(Cl)cn2)CC1 (centres unmarked)	Gabrg2/Gabra2, with β3 subunit (Rattus norvegicus, UniProt P18508+P23576)	GABA-induced chloride current, two-electrode voltage clamp	Xenopus oocytes	together with: GABA at EC3		Emax	356 ± 22%
O=C(NC1CCCCC1)c1nn(Cc2ccc(F)cc2)c2ccccc12	CNR2	calcium mobilization, agonist	CHO-K1 expressing Gαq16		baseline: CP55,940 maximum	Emax	95 ± 3%
C=CCn1[se]c2ccccc2c1=O	fbpC	inhibitor, resorufin butyrate fluorescence		5 µM, 40 min preincubation	baseline: untreated	remaining activity	15 ± 2%
CC1(C)Oc2cc([C@]34CC5CC(C[C@@](N=C=S)(C5)C3)C4)cc(O)c2[C@@H]2C[C@H](O)CC[C@H]21	Cnr1 (Rattus norvegicus, UniProt P20272)	radioligand binding Bmax reduction	rat brain membranes	10-fold Ki, together with: [3H]CP-55,940	baseline: untreated	covalent labeling	54%

Substance	target	assay	system	conditions	how to read	endpoint	result
CCCCCc1cc(O)c2c(c1)OC(C)(C)[C@@H]1CCC(C)=C[C@@H]21	Cnr1 (Mus musculus, UniProt P47746)	G protein activation, agonist	ICR mouse, male, cerebellar membranes		baseline: basal binding	Emax	56%
COC1=C(OC)C(=O)C(C/C=C(\C)CCC=C(C)C)=C(C)C1=O	Type II NADH:quinone oxidoreductase Ndh	enzyme activity, substrate				Km	51 ± 50 µM
CCCCCc1cc(O)c2c(c1)OC(C)(C)[C@@H]1CCC(C)=C[C@@H]21	FABP1 (Homo sapiens, UniProt P07148)	binding, DAUDA displacement		concentration not given	baseline: no competitor	remaining fluorescence	52 ± 4%
CC1N=C(c2ccccc2F)c2cc(N(C)C)ccc2NC1=O (centres unmarked)	ADRA2A	ligand displacement, radioligand		10 µM		inhibition	41%
COc1ccc(N(C)S(=O)(=O)c2ccc3[nH]c(=O)c(=O)[nH]c3c2)cc1	eis (Mycobacterium tuberculosis, UniProt P9WFK7)	inhibitor, HTS		20 µM		activity class	inactive
CC1N=C(c2ccccc2F)c2cc(NC3CCCCC3)ccc2NC1=O (centres unmarked)	ADRA2A	ligand displacement, radioligand		10 µM		inhibition	61%
CN(C(=O)/C=C/c1ccoc1)[C@@H]1CC[C@@]2(O)[C@H]3Cc4ccc(O)c5c4[C@@]2(CCN3CC2CC2)[C@H]1O5	OPRK1	beta-arrestin 2 recruitment, agonist, Tango	HEK293	concentration not given	baseline: U50488H	log relative intrinsic activity	0.28 ± 0.02
CN1CCCC2C(c3ccccc3)C(C3=NCCCC3)C(c3ccccc3)CC21 (centres unmarked)	rat α4β2 and α7 nicotinic receptors	radioligand displacement		at epibatidine ID50	baseline: [3H]-cytisine over [3H]-MLA displacement	differential displacement ratio	1.32
C[n+]1ccc(-c2ccccc2)cc1	SLC22A2 (Homo sapiens, UniProt O15244)	substrate	CHO expressing OCT2	8 nM, 30 s		uptake increase by shaking	72%
O=c1[nH]c(/C=C/c2ccccc2O)c([N+](=O)[O-])c(=O)[nH]1	ribE	enzyme activity, substrate	Mycobacterium tuberculosis, recombinant riboflavin synthase	pH 7.0		Ks	63 ± 6 µM
NC(=S)c1ccc[n+]([C@@H]2O[C@H](COP(=O)([O-])OP(=O)(O)OC[C@H]3O[C@@H](n4cnc5c(N)ncnc54)[C@H](O)[C@@H]3O)[C@@H](O)[C@H]2O)c1	Type II NADH:quinone oxidoreductase Ndh	transhydrogenase activity, substrate		together with: NADH		Km	20 ± 3 µM
CCCCCCC1(c2cc(O)c3c(c2)OC(C)(C)[C@@H]2CCC(=O)C[C@@H]32)CCC1	Cnr1 (Rattus norvegicus, UniProt P20272)	binding			baseline: Ki CB2 mouse over CB1 rat	selectivity ratio	16 fold
CNC(=O)[C@@H](NC(=O)c1nn(Cc2ccc(F)cc2)c2ccccc12)C(C)C	CNR2	calcium mobilization, agonist	CHO-K1 expressing Gαq16		baseline: CP55,940 maximum	Emax	73 ± 3%
β-endorphin	water-soluble µ-opioid receptor human	binding, graphene microelectrode Faradaic current	1× PBS	concentration not given, pH 7.4		response amplitude	-0.89 ± 0.03 pA
CN(C(=O)/C=C/c1ccoc1)[C@@H]1CC[C@@]2(O)[C@H]3Cc4cccc5c4[C@@]2(CCN3CC2CC2)[C@H]1O5	OPRK1	G protein activation, agonist, GloSensor cAMP	HEK293T	concentration not given	baseline: U50488H	log relative intrinsic activity	0.17 ± 0.06
O=c1[nH]c(/C=C/c2ccc(F)cc2)c([N+](=O)[O-])c(=O)[nH]1	ribE	enzyme activity, substrate	Mycobacterium tuberculosis, recombinant riboflavin synthase	pH 7.0		Ks	14 ± 1 µM
N[C@@H](CCC[C@H](N)C(=O)O)C(=O)O	Diaminopimelate decarboxylase (lysA, Mycobacterium tuberculosis, UniProt P9WIU7)				baseline: compound over D,D-DAP	binding affinity ratio	~40 fold
CC(C)[C@H](NC(=O)c1nn(Cc2ccc(F)cc2)c2ccccc12)C(=O)O	CNR2	calcium mobilization, agonist	CHO-K1 expressing Gαq16		baseline: CP55,940 maximum	Emax	54 ± 1%
Nc1ncnc2c1ncn2[C@@H]1O[C@H](COP(=O)(O)O)[C@@H](O)[C@H]1O	AK1 (Homo sapiens, UniProt P00568)	substrate, coupled spectrophotometric			baseline: kcat of compound with human AK1	relative Vmax	100%

For quick reference, copied from above:
Substance	target	assay	system	conditions	how to read	endpoint	result
O=c1c2ccccc2[se]n1C12CC3CC(CC(C3)C1)C2	fbpC	inhibitor, resorufin butyrate fluorescence		5 µM, 40 min preincubation	baseline: untreated	remaining activity	59 ± 14%
C1CCC2(CC1)CCNCC2	Matrix protein 2 (Influenza A virus, UniProt P0DOF5)	ion channel current, inhibitor, two-electrode voltage clamp	Xenopus oocytes	100 µM		remaining activity	5%
CC(=O)O[C@H]1CC[C@@]2(C)C(=CC[C@@H]3[C@@H]2CC[C@]2(C)C(=O)CC[C@@H]32)C1	SCN10A (Homo sapiens, UniProt Q9Y5Y9)	sodium influx, inhibitor, FLIPR	HEK293	10 µM, together with: deltamethrin 10 µM		inhibition	101%
COc1ccccc1Cn1[se]c2ccccc2c1=O	fbpC	inhibitor, resorufin butyrate fluorescence		5 µM, 40 min preincubation	baseline: untreated	remaining activity	36 ± 4%
CC1(C)Oc2cc([C@]34CC5CC(C[C@@](N=C=S)(C5)C3)C4)cc(O)c2[C@@H]2C[C@H](O)CC[C@H]21	Cnr1 (Rattus norvegicus, UniProt P20272)	radioligand binding Bmax reduction	rat brain membranes	10-fold Ki, together with: [3H]CP-55,940	baseline: untreated	covalent labeling	54%
